Experimental data pooled from the literature.
A part holds a random share of what one study measured.
Chain of UniProt P10721 (whole entry, unmodified, looked up): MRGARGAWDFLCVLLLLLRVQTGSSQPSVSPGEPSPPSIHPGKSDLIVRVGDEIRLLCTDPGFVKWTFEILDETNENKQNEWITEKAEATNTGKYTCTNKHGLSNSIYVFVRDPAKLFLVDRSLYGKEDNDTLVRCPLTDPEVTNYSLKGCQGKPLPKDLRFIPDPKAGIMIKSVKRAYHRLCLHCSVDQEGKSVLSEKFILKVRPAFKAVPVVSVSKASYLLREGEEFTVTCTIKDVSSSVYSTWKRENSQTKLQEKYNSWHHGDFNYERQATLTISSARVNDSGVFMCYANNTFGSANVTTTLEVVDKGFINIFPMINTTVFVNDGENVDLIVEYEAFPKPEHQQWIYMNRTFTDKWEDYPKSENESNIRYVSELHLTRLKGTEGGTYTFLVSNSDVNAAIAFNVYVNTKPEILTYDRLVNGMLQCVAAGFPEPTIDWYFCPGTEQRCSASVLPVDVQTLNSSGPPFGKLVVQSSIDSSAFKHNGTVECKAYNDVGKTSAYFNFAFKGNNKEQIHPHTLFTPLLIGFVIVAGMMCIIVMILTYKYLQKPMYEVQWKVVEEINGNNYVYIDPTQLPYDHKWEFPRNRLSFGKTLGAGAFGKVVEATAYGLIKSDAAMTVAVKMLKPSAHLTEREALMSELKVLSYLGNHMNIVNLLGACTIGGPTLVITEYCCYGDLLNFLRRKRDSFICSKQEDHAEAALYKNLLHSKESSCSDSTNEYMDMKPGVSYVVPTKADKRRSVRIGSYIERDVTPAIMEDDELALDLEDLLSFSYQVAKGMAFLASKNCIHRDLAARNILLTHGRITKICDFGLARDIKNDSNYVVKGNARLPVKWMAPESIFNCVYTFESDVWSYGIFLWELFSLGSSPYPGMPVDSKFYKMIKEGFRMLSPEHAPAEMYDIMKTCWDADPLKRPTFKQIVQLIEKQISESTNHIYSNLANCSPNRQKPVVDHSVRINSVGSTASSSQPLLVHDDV
Chain of UniProt Q9UQM7 (whole entry, looked up): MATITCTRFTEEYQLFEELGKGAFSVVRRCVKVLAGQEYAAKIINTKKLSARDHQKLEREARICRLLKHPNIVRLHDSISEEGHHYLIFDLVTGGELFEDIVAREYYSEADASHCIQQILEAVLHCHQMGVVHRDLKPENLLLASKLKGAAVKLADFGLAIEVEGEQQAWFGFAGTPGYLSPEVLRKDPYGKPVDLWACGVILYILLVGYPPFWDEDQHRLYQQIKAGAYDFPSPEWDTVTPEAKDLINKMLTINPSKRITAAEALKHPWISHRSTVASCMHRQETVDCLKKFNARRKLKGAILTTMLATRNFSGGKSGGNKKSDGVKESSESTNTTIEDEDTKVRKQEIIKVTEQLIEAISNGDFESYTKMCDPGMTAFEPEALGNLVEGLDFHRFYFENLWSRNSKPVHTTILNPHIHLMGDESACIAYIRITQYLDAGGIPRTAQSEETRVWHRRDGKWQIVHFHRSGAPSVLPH
Chain of UniProt Q00532 (whole entry, looked up): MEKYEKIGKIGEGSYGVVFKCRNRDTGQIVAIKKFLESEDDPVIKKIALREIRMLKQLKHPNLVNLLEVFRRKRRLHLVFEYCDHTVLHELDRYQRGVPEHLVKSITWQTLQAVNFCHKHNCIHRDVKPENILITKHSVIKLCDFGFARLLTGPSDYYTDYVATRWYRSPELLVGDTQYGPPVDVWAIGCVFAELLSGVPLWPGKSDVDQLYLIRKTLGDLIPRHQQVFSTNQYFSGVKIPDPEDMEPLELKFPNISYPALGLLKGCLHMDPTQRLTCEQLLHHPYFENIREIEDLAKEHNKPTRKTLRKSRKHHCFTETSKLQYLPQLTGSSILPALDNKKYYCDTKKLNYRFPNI
Chain of UniProt Q13188 (whole entry, looked up): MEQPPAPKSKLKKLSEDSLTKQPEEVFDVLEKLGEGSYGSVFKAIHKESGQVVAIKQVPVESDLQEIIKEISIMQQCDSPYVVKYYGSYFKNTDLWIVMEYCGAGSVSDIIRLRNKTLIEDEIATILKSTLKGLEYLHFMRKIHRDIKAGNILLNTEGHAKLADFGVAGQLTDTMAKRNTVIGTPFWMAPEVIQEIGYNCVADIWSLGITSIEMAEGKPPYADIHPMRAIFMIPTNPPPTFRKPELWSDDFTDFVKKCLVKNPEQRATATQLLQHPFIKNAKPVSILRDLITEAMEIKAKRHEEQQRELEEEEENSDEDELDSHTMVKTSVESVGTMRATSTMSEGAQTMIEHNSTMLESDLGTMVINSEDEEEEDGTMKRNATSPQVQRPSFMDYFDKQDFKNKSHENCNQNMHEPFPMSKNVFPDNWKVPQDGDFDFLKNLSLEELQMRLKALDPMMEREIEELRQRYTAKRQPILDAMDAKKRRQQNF
Chain of UniProt Q96BR1 (whole entry, looked up): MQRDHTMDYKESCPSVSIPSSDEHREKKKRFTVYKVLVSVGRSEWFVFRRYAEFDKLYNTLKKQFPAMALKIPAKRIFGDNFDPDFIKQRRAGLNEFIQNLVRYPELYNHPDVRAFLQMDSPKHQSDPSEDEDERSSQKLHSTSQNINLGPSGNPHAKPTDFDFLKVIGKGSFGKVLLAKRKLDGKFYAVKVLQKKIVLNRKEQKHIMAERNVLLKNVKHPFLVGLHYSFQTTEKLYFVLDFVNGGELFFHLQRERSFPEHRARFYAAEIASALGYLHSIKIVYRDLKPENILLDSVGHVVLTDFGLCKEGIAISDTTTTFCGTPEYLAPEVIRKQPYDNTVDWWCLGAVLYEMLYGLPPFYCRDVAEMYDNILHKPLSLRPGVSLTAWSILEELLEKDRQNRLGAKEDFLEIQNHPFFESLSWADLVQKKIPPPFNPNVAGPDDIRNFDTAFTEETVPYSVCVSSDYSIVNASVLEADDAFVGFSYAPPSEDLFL
Chain of UniProt Q15349 (whole entry, looked up): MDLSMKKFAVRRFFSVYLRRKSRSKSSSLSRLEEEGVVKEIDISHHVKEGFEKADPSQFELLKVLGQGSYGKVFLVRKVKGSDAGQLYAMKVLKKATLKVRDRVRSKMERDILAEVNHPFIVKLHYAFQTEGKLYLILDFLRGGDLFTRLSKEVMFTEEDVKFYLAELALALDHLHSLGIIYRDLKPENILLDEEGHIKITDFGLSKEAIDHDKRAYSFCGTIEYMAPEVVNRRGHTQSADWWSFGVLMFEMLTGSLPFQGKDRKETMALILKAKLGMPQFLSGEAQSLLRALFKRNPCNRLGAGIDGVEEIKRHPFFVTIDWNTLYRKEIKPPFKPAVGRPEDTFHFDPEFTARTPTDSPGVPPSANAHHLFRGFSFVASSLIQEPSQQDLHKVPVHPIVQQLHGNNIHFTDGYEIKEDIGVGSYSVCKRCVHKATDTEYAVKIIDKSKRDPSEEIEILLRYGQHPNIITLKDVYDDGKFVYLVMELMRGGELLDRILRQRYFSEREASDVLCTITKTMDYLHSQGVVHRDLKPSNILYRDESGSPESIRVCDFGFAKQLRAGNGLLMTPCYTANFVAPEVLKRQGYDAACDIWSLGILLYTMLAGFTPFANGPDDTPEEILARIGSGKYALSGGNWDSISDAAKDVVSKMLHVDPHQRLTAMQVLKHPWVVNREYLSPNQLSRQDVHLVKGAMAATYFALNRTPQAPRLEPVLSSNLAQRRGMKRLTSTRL

Series 1
Structure (SMILES): COc1cc(-c2cn(C3CCc4c(F)cccc4N(CC(F)(F)F)C3=O)nn2)ccc1-n1cnc(C)c1 (stereo not shown)
Read-out: cell-free assay
Method: competition with immobilised ligand
Tested at: 1 µM
target | remaining binding
STK3 (Homo sapiens, UniProt Q13188) | 100%
CAMK2A (Homo sapiens, UniProt Q9UQM7) | 100%
CDKL1 (Homo sapiens, UniProt Q00532) | 100%
DYRK1A (Homo sapiens, UniProt Q13627) | 84%
Tyrosine-protein kinase ABL1, non-phosphorylated (ABL1, Homo sapiens, UniProt P00519, H396P) | 52%
YES1 (Homo sapiens, UniProt P07947) | 100%
Ribosomal protein S6 kinase alpha-2, C-terminal kinase domain (RPS6KA2, Homo sapiens, UniProt Q15349) | 100%
EPHB1 (Homo sapiens, UniProt P54762) | 100%
EGFR (Homo sapiens, UniProt P00533, del752-759) | 98%
Tyrosine-protein kinase ABL1, non-phosphorylated (ABL1, Homo sapiens, UniProt P00519) | 94%
SGK3 (Homo sapiens, UniProt Q96BR1) | 100%
KIT (Homo sapiens, UniProt P10721, T670I/V559D) | 94%
NEK10 (Homo sapiens, UniProt Q6ZWH5) | 100%
KIT (Homo sapiens, UniProt P10721) | 100%

Series 2
Cell line: mouse MPNST tumor cells
Method: high-content immunofluorescence imaging
Item: nuclear SOX9
Tested at: 10 µM
Time: 12 h
Setting: mean of 2 replicates
Reference: DMSO control
Direction: higher = more nuclear SOX9
Structure (SMILES) | nuclear SOX9 intensity
CCC(C)(C)c1ccc(CC(C)CN2C[C@@H](C)O[C@@H](C)C2)cc1 (stereo partly shown) | 98.9 % of DMSO
O=C(Nc1ccccc1)N1CCN(c2nc(-c3ccccc3)ns2)CC1 | 104 % of DMSO
CC(C)CCn1c(CN2CCN(C(=O)C3CC3)CC2)nc2c1c(=O)n(C)c(=O)n2C | 98.1 % of DMSO
Cc1ccccc1C(=O)N1CCc2cc(-c3nc(NC(=O)Cc4ccc5c(c4)OCO5)sc3C)ccc21 | 110 % of DMSO
O=C(c1cc2c(s1)CCCCC2)N1CCC(n2c(=O)[nH]c3ccccc32)CC1 | 104 % of DMSO
CN(C)CCOc1cc(-c2cn[nH]c2)ccc1NC(=O)C1COc2ccccc2O1 (stereo not shown) | 113 % of DMSO
O=C(NCc1ccc(F)cc1)N1CCN2C(=O)OC(c3ccccc3)(c3ccccc3)C2C1 (stereo not shown) | 126 % of DMSO
Cc1ncc([N+](=O)[O-])n1CC(C)O (stereo not shown) | 99.5 % of DMSO

Series 3
Target: Mitogen-activated protein kinase kinase kinase 9 (MAP3K9, Homo sapiens, UniProt P80192)
Chain of UniProt P80192 (whole entry, looked up): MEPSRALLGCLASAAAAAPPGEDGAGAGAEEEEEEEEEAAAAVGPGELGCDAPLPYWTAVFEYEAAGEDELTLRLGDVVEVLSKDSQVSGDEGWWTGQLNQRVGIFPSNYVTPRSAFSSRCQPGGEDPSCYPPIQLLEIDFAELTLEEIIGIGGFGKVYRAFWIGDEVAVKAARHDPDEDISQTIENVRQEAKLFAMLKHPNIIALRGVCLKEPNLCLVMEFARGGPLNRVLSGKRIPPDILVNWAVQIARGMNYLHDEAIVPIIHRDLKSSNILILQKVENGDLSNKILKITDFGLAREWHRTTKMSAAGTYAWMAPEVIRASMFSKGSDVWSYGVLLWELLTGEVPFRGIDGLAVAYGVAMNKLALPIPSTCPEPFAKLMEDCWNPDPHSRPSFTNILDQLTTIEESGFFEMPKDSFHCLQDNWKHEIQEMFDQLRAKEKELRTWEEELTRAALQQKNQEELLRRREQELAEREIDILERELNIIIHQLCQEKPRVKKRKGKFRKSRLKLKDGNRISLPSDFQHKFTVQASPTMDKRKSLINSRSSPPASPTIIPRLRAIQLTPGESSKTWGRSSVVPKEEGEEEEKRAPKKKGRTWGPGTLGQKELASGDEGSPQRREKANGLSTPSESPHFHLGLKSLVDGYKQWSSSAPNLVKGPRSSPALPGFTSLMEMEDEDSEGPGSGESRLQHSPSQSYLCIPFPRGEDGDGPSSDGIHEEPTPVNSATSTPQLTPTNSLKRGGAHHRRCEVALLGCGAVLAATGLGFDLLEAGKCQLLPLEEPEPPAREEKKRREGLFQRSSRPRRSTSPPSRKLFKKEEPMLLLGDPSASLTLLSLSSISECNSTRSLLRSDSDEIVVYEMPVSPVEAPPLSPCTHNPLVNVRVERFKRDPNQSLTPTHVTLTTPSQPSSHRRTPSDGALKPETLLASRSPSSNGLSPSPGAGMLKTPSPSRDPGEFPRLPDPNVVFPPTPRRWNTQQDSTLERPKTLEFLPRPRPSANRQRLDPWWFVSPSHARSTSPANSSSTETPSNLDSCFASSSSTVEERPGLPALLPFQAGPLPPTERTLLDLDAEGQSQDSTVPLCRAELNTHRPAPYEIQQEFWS
Read-out: enzyme activity
Action: inhibitor
Tested at: 0.5 µM
Reference: control
Structure (SMILES) | remaining activity [%]
Nc1[nH]nc2nnc(-c3c(-c4ccccc4)nn4ccccc34)cc12 | 99.9
Cn1cc(/C=C2\C(=O)Nc3ccc(S(N)(=O)=O)cc32)c2ccccc21 | 28.1
CS(=O)(=O)CCNCc1ccc(-c2ccc3ncnc(Nc4ccc(OCc5cccc(F)c5)c(Cl)c4)c3c2)o1 | 112
CCN1/C(=C/C(C)=O)Sc2ccc(OC)cc21 | 98.8
COc1cc2ncnc(N3CCN(C(=O)Nc4ccc(Oc5ccccc5)cc4)CC3)c2cc1OC | 100
CC(C)[C@H](CO)Nc1nc(Nc2cccc(Cl)c2)c2ncn(C(C)C)c2n1 | 37.8
Cc1ccc(NC(=O)c2ccc(CN3CCN(C)CC3)cc2)cc1Nc1nccc(-c2cccnc2)n1 | 102
Cn1cnc2cc3c(Nc4cccc(Br)c4)ncnc3cc21 | 79.8
O=c1cc(N2CCOCC2)oc2c1ccc1ccccc12 | 111
O=C1NC(=O)/C(=C/c2ccc3nccnc3c2)S1 | 102
Cc1nc(Nc2ncc(C(=O)Nc3c(C)cccc3Cl)s2)cc(N2CCN(CCO)CC2)n1 | 99.6
COc1cc2ncnc(Nc3ccc(OCc4ccccc4)cc3)c2cc1OC | 96.5
CC(C)c1nn(-c2c(Cl)cccc2Cl)c2nc(Cc3ccc(OCCO)cc3)[nH]c(=O)c12 | 95.7
CN(C)CCCn1cc(C2=C(c3c[nH]c4ccccc34)C(=O)NC2=O)c2ccccc21 | 46
COc1cc2ncc(-c3ccccc3)nc2cc1OC | 85.4
COc1ccc(Cl)cc1NC(=O)Nc1cc(C)nc2ccccc12 | 98.6
CCOc1cc2ncnc(Nc3cccc(Br)c3)c2cc1OCC | 96.1
CCC(=O)Nc1ccc2ncnc(Nc3cccc(Br)c3)c2c1 | 92.7
O=C(Nc1ccc(Cl)cc1)c1ccccc1NCc1ccncc1 | 89

Other studies, line by line
Cell line: Caco-2
Tested at: 10 µM
Time: 120 min
Setting: basolateral to apical
Compound | recovery [%]
CC(C)NCC(O)COc1cccc2ccccc12 (stereo not shown) | 98.3
C[C@H]1O[C@@H](O[C@H]2[C@@H](O)C[C@H](O[C@H]3[C@@H](O)C[C@H](O[C@H]4CC[C@@]5(C)[C@H](CC[C@@H]6[C@@H]5C[C@@H](O)[C@]5(C)[C@@H](C7=CC(=O)OC7)CC[C@]65O)C4)O[C@@H]3C)O[C@@H]2C)C[C@H](O)[C@@H]1O | 94.1
